Results of several laboratories.
Each numbered part is a random draw from the data of one study; scales do not carry over between parts.

Set 1
Target: RNA binding protein fox-1 homolog 2, RRM domain, GST-SBP tag (RBFOX2, Homo sapiens, UniProt O43251-10, residues 100-194)
Technique: RNA Bind-n-Seq
Form: RNA
Matrix: in vitro
Concentration: 365 nM
Notes: natural RNA segment, single round, ends assumed
Reference: no-protein control
Reading: higher = stronger binding
Shared flanks, not repeated: GGGAGUUCUACAGUCCGACGAUC … UGGAAUUCUCGGGUGCCAA
Residues (chain): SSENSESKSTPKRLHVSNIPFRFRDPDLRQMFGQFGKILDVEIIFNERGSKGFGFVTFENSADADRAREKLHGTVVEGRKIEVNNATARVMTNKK
| Oligonucleotide | RBNS enrichment (R) |
| --- | --- |
| UUGUUUUACUCCCAAUGACUGCACUAUAUGUAUGCAUAAGACCACUUUUGAGCGCUGUGUUCCCCCUUCUGAGUAGUCCUUUGACGACGUGUUGUGUUUUCUGAUGUUGA | 1.6 |
| CAUGCCCUACUUGGAAAGAUCUAAGAUCUGAAUCUUAUCCUUUGCCAUCUUCUGUUACCAUAUGGUGUUGAAUGCAAGUUUAAUUACCAUGGAGAUUGUUUUACAAACUU | 0.345 |
| UGCUGCCCUUGCCUGUUCCCCAUUAGCACAGGAGUAGCAGCAGCAGGACAGGCAAGAGCCUCACAAGUGGGACUCUGGGCCUCUGACCAGCUGUGCGGCAUGGGCUAAGU | 0.397 |
| UAAUGUAAUUUAGUUAGAAUGCCAGAAGGAGAACACUAUUUUCAUACCCUACUUUUUCUGUACCUAAAUUUUCUUAAUAAAAUUUAGUAUAGCACUACAUUCUUUUUUAA | 0.813 |
| AGACUGAAUUGGACUAAACCCGUCCUCUGUUCCCAGCACGUUUCUCAUAUAGCCCUCAGUCACUGAGGGAGUCCCCCGCAGGAUUGGAGAGGCACAUUCCCUUGGGACAG | 0.534 |
| GUUUCAUGCCCCUGGACCAGCCUUAUCUCAGACCUGCUUACCUGCAUGAUGCCUUUUUGGGGGCUGGGGAUUGAGUCUUGCUGCUCUGCCCAGCCCUGUUCUAUUCUGCA | 2.47 |
| CACAGAGGAUACCUUUGUCCACGAAGCCCACUUAACUCACAGCCUUCCUCCUGCCUCAGUCUCCCAAGUGCUACAAUGACGGGCCUUUGCCACUAUGCUUGGCUGGCCUU | 0.477 |
| AAACACAAAAUGUUGGGUGAAACUGGGAACAACUACUCAGAAGCUCAUUUAUUUGCUUAAAUGGAAAGUGUGGGAGCCACUACCCUCUCUUUUGAUCUGCCAAGGAUUUC | 0.318 |
| GAAGUUUUGUAGGACAUUCCUUCUAGUCACUGCGGACUCCUCACGAAUGCACACAGGUCUUCAGGGAGUUUGACUGUCCUUACCCAGAGUCCUCUCUGAUGCAGCUGACC | 0.806 |
| UUGGGAAAUCGGAAUCAAAGUAUUGGUGCCAGCUCACUGAAGAUCUGAUUGGGUCAACAGUUGAUUAGUGGAAGACGGAGAGCAGAAGAAUUUUGUCAUAUCUAUUAGGC | 0.485 |
| UGGUACCGGGGGUGGGGCUGUCACAACUGAAAACCCUCCAGCUGGAAUGGACAAUGUGCCCCCAACACCAACUCCUCCUGCCCUCCACUGUGGUAGAGUCUGGGACCAAC | 0.417 |
| UCAGAAAGCAAUUUUGUAAUUUCAGAGAGUGUUUUGAGCCAUGGCCACGUUGUCAUUGUGAGUCUAUAGCUUGACUCCUUGGAGAACAAUAUUCAUUUGGUUGUGGAGAC | 0.322 |

Set 2
Target: Fragile X messenger ribonucleoprotein 1, C-terminal low-complexity region (Fmr1, Mus musculus, UniProt P35922)
Technique: RNA Bind-n-Seq
Form: RNA
Matrix: in vitro
Concentration: 200 nM
Notes: whole 134-nt RNA, ends assumed
Together with: 150 mM KCl
Reference: input library
Reading: higher = stronger binding
Shared flanks, not repeated: GGGAGUUCUACAGUCCGACGAUC … UGGAAUUCUCGGGUGUCAAGG
| Oligonucleotide | log2 enrichment |
| --- | --- |
| UCCUGUGCUACACAUCGUAUGUACCGAAUCGGGUUUUUUGGGUUUUUUGGGUUUUUUGGGAAAGUAUUAUGUUACGCCGUUCGGAUCUGC | 0.166 |
| UCAAGUCCUGUGCUACACAUCGUAUGUACCGAAUCGGGGCCGGGGCCGGCCGGGAAAGUAUUAUGUUACGCCGUUCGGAUCUGCACUUCC | -0.0953 |
| UGUGAGGUGGAUUUUGUUUAUUUUUUUAGCUCAUUUCCAGGGGUGGGAAUUUUUUUUUAAUAUGUGUCAUGAAUAAAGUUGUUUUUGAAA | 0.0958 |
| CUGUGCUACACAUCGUAUGUACCGAAUCGGGGAAAAAAAGGAAAAAAAGGGAAAAAAAGGGAAAGUAUUAUGUUACGCCGUUCGGAUCUG | -0.955 |
| CUCAAGUCCUGUGCUACACAUCGUAUGUACCGAAUCGGGGUUGGGUUGGUUGGAAAGUAUUAUGUUACGCCGUUCGGAUCUGCACUUCCA | 0.32 |
| UGGGAGGUGGAUUUUGUUUAUUUUUUUAGCUCAUUUCCAGGGGUGGGAAUUUUUUUUUAAUAUGUGUCAUGAAUAAAGUUGUUCUUGAAA | 0.374 |
| UCAAGUCCUGUGCUACACAUCGUAUGUACCGAAUCGGGGCCGGGCCGGGGCCGGAAAGUAUUAUGUUACGCCGUUCGGAUCUGCACUUCC | -0.112 |
| UAGGUAUUUCUGGGAAAAGCCAGCUUCUGUUUGCACUGGUCUUCACAACUCGUUACCUGGAUCUUUUUACUUCAUUUAUUUCAUUGUAUA | -1.86 |
| AAGUCCUGUGCUACACAUCGUAUGUACCGAAUCGGGGUUUUGGGUUUUGGUUUUGGGAAAGUAUUAUGUUACGCCGUUCGGAUCUGCACU | -0.0406 |
| ACCAUGCAGGUGGGCCUCUUUGGGAAGUGGGGCAAGGGGGGGAUAGGGAGGGGGGUAACACUUUGGGAACAGGUGGUCCCAGGUCGUUUC | 0.861 |
| CCUGUGCUACACAUCGUAUGUACCGAAUCGGGGUUUUUUUGGGGUGGGGAAAAAAAGGGGAAAGUAUUAUGUUACGCCGUUCGGAUCUGC | 0.213 |
| UGUCUGGUGACAAGGAAGAGGAUGCUCCUCAUAGAGAAGAUUACUUUGAGCCCAUUUCUCCUGAUCGGAAUUCUGUUCCCCAGGAAGGGC | -2.09 |
| AGUCCUGUGCUACACAUCGUAUGUACCGAAUCGGUUUUUGGGUUUUUGGGGUUUUUGGAAAGUAUUAUGUUACGCCGUUCGGAUCUGCAC | -0.187 |
| AAGUCCUGUGCUACACAUCGUAUGUACCGAAUCGGGGUGGGGUUUUUGGGGUGGGGAAAGUAUUAUGUUACGCCGUUCGGAUCUGCACUU | 1.17 |

Set 3
Target: RING finger protein unkempt homolog, zinc fingers 1-6, GST-SBP tag (UNK, Homo sapiens, UniProt Q9C0B0, residues 30-357)
Sequence of UniProt Q9C0B0 (30-357, looked up): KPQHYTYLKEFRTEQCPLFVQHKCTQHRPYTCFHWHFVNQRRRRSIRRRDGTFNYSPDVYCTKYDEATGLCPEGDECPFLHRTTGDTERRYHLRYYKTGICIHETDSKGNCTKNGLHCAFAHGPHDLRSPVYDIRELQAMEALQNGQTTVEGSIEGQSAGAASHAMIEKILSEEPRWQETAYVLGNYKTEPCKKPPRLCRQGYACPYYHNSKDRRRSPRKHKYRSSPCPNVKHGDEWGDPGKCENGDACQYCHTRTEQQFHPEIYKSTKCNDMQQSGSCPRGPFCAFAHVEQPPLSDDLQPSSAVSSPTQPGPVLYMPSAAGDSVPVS
Technique: RNA Bind-n-Seq
Form: RNA
Matrix: in vitro
Concentration: not given
Notes: RNA with constant flanks, human-mouse chimeric sites, ends assumed
Reference: input RNA pool
Reading: higher = stronger binding
Shared flanks, not repeated: GGGAGUUCUACAGUCCGACGAUC … CAACAGAGGAUUGAGCAUCA
| Oligonucleotide | bound/input enrichment |
| --- | --- |
| ACCUCCCCCUCCCGCCUCACCCCACCCCCGCUUUUUGGAAAGUUUUUGGCGUUUCUUUUCCUUCCCCAGUUAGAAUUGUUUUUACCACCCCCGCAAGGGUCUAUCGAAGGGCUUGACGGA | 7.84 ratio |
| AAAGAACUACUGAGGCAAGGCAGCAAAUUUAGGAGAGAUGUAUCAACAAUAUUGAUAGAGUUAGGAUUCCAAAUUAAAAAGAAAACUAAAAGAUUGUACAUCAACAAAGCCAAUGUGUGG | 4.35 ratio |
| UUUGUAUUCAUGUUAAGCACACGUGCUGGUGGUCUGGGCAUCAAUCUUGCAACUGCUGAUGUAGUCAUUUUAUAUGACUCAGAUUGGAAUCCGCAAGUUGAUCUUCAGGCUAUGGACCGU | 0.142 ratio |
| AAUUUCCUGUCAUACUUUUUAGACAUUCACAUCAGACUUACAGAGCACCUGGCCACAUUCUAGGUUUGUGUUAUUUCUAAGCCUUUUAUAUGAUCAAAUGAGAACACUGGCAGCCAGAUG | 0.436 ratio |
| GAAUCCUACUCAGGCGGUCCCACAACACUGAAUGCAACAGCAGCAGCAUCUUAGUCACAGUAGGGUAGUUUUGGGGCUCUGUGGCCAGGGUUUUAUUCACAUGCAGGUUUGGAAAAUGUA | 1 ratio |
| AAAUCGUGUGUGUCCAAUAUUGAAAGUGCUUUAUCUACACUCCAAUAUGUAAGCAGUAUAGUAGUUUCUUUAGAGAAUAGGUCUGCCAUUGUAAAGUACAAUGCAAGCUUAGUCACUCCA | 3.89 ratio |
| GGACAUCUGUCAAAUUGUUAUGUUCCUGUGAAACAAGUGAGCACUUUGAUACACUUCAUCUGCUUGUACAUUUAACUGAUAGAGAAAUGUAAAUAUGUUAAUCCAAGCAAUGUGUCACUU | 0.35 ratio |
| AUAGAUGAAAUUGAUGUAGAUCAGGAAGGAAUUGCUGAAAUGAUCCUGGAUGAAAAUGCUAUUGCUCAAGUUCCACGCCCUGGCACAUCUUUGAAGCUCCCUGGCACUAACCAAACAGGA | 0.446 ratio |
| GCACUUCUCAAAUACUGGCCAAAGACUCACAGUCCAAAAGAAGUAAUGUUCUUAAAUGAAUUAGAAGAGAUUUUAGAUGUAAUUGAACCAUCAGAGUUUGUGAAGAUCAUGGAACCCCUU | 0.781 ratio |
| UAAAUCCUGUGCCAGCACUUCGCUCAUAAAGUUUUAAAUUCUGGACCAAUAGUGUUUGUUUCCUGAUUAUUGUAUCCAAUACUUUAUCUAGUAUGUAACUCACUCUUACUGAUAAUAAAA | 1.68 ratio |
| UGACAAGCACGAGCAUCGGCCAUGCCUUUCCUUGACAUACAGAAAAAGCUGGGCAUCAGCCUGGACCGGCACUUUAUGUUCCUAAGCGCAGAACAGCCCUAUAAGAACGCCGCUCGGUGC | 0.101 ratio |

Set 4
Target: Interferon regulatory factor 5, full length, phosphomimetic (IRF5, Homo sapiens, UniProt Q13568-2, residues 1-514, K96S/S451D/S453D/S456D/S462D)
Technique: protein-binding microarray
Form: double-stranded DNA, one strand shown
Matrix: in vitro
Concentration: 250 nM
Notes: 60-bp whole probe
Together with: salmon DNA 0.4 mg/ml
Reference: random background probes
Reading: higher = stronger binding
Shared flanks, not repeated: GCCTAGCAC … GTCTTGATTCGCTTGACGCTGCTG
| Oligonucleotide | log fluorescence |
| --- | --- |
| TCAGTCATCGATTTCTTACTGTGCTAG | 0.577 z-score |
| AGGGTGTTCTTTTCTGTTGTCGTGCTA | 0.97 z-score |
| TTAGATTTCAGCATCGATTAGTGCTAG | 1.69 z-score |
| GACGAACCGAGTTTCGAGACGTGCTAG | 4.66 z-score |
| CACACCCGGCTCCTCTGCCAGTGCTAG | -0.81 z-score |
| TCAATTTTCGGGTAGATGACTGTGCTA | 5.85 z-score |
| GACGGTATCGACTTGCGGGACGTGCTA | 2.18 z-score |
| CTTTCTTTAACATATTCTCTTGTGCTA | 1.99 z-score |
| TCATGCTTTCTTTTTGCACTGTGCTAG | 1.64 z-score |
| TTAGGTCTCGGTCTCGGTTGGTGCTAG | 0.79 z-score |
| TTAGAACTGAGACTGGGTTAGTGCTAG | -0.137 z-score |
| TTCGGTCTCCTTATCCTTTAGTGCTAG | 0.967 z-score |
| GTTTTTTTTTAATTGAAATCGTGCTAG | 0.963 z-score |
| GCCGATCTCAGACTGGAGACGTGCTAG | -0.47 z-score |
| AGATGGTCCTCTCTCTATTCGTGCTAG | -0.301 z-score |
| GACAGTTTCGGTTCCGGGACGTGCTAG | 10.8 z-score |
